Measured values from different studies.
Numbered parts are unrelated; each lists some results of a single study. “And” joins repeats or separate records; there may be more than shown.
Chain of UniProt P47898 (whole entry, looked up): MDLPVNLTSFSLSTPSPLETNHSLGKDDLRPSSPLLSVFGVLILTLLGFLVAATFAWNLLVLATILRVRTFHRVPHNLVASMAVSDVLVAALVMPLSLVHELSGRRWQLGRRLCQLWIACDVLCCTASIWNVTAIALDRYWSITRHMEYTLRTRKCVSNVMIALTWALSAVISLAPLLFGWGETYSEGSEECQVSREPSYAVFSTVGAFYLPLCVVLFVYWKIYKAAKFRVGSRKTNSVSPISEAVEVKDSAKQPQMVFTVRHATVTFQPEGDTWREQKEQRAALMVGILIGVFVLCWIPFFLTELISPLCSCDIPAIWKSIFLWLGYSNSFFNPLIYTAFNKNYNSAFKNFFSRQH

Study 1
Host: human
Medium: microsomes or S9
Concentration: 2 µM
Time: 0.5 h
Quantity: remaining compound
CCC12OCC(C)(C)N1O/C(=N/c1ccccc1)N2c1ccccc1 (centres unmarked): 5.95%
CCOC(=O)/C=N/N(c1ccccc1)c1ccccc1[N+](=O)[O-]: 2.53%
CC(C)NC(=O)c1[nH]cnc1C(=O)N1CCCCCC1: 44.9%
CC(=O)c1ccc(Nc2nc3ccc(C)cc3n3cnnc23)cc1: 70.5%
CN(c1nccc2c(Br)csc12)C1CCN(C(=O)OC(C)(C)C)CC1: 59.9%
O=C(O)c1nc2nc(C3CC3)cc(C(F)(F)F)n2n1: 85.2%
COC(=O)c1cccc(NC(=O)N2Cc3c(sc4c3CCCC4)-n3cccc3C2C(C)C)c1 (centres unmarked): 5.28%

Study 2
Cell line: mouse MPNST tumor cells
Method: high-content immunofluorescence imaging
Measured: nuclear SOX9
Concentration: 10 µM
Time: 12 h
Setting: mean of 2 replicates
Baseline: DMSO control
Direction: higher = more nuclear SOX9
Quantity: nuclear SOX9 intensity
N[C@@H](Cc1cc(I)c(Oc2ccc(O)c(I)c2)c(I)c1)C(=O)O: 90.9 % of DMSO and 87.6 % of DMSO
C=C1C[C@H]2[C@@H]3C=C(C)C4=CC(=O)CC[C@]4(C)[C@H]3CC[C@]2(C)[C@@]1(OC(C)=O)C(C)=O: 87.3 % of DMSO
CN[C@H](CC(C)C)C(=O)N[C@H]1C(=O)N[C@@H](CC(N)=O)C(=O)N[C@H]2C(=O)N[C@H]3C(=O)N[C@H](C(=O)N[C@H](C(=O)O)c4cc(O)cc(O)c4-c4cc3ccc4O)[C@H](O)c3ccc(c(Cl)c3)Oc3cc2cc(c3O[C@@H]2O[C@H](CO)[C@@H](O)[C@H](O)[C@H]2O[C@H]2C[C@](C)(N)[C@H](O)[C@H](C)O2)Oc2ccc(cc2Cl)[C@H]1O: 101 % of DMSO
CC1(C)S[C@@H]2[C@H](NC(=O)[C@H](C(=O)O)c3ccsc3)C(=O)N2[C@H]1C(=O)O: 96.9 % of DMSO

Study 3
Cell line: A-375
Concentration: 100 µM
Time: 18 h
Quantity: viability
N[C@@H](Cc1ccc(O)c(O)c1)C(=O)O: 88.3%
O=c1cc[nH]c(=O)[nH]1: 107%
Cc1cc(C(C#N)c2ccc(Cl)cc2)c(Cl)cc1NC(=O)c1cc(I)cc(I)c1O (centres unmarked): 12.7%
CCCCOc1ccc(CC(=O)NO)cc1: 98%
CC[C@H](C)C[C@H](C)CCCCCCCCC(=O)N[C@H]1C[C@@H](O)[C@@H](NCCN)NC(=O)[C@@H]2[C@@H](O)CCN2C(=O)[C@H]([C@H](O)CCN)NC(=O)[C@H]([C@H](O)[C@@H](O)c2ccc(O)cc2)NC(=O)[C@@H]2C[C@@H](O)CN2C(=O)[C@H]([C@@H](C)O)NC1=O: 15.8%

Mixed results
CN([C@@H]1CCc2c(CC(=O)O)c3cc(S(C)(=O)=O)ccc3n2C1)S(=O)(=O)c1ccc(F)cc1 — inhibition (5-hydroxytryptamine receptor 5A (HTR5A, Homo sapiens, UniProt P47898); ligand displacement; 10 µM): -1.56%

Repeated from above (study 3):
Cc1cc(C(C#N)c2ccc(Cl)cc2)c(Cl)cc1NC(=O)c1cc(I)cc(I)c1O (centres unmarked): 12.7%
